# Results of several laboratories.
# Lines come from different studies, so protocols differ. ± marks the error that the study gave.
# MBLAC2: MBLAC2 (Homo sapiens, UniProt Q68D91)
# Sequence of UniProt Q68D91 (whole entry, looked up): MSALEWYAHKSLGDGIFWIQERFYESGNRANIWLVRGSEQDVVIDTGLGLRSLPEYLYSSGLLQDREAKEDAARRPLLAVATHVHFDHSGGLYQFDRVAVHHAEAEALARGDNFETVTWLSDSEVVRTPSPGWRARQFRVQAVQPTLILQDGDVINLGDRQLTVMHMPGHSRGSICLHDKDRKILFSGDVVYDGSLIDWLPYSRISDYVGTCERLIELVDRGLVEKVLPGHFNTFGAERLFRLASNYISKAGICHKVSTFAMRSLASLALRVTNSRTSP
# TDP1: Tyrosyl-DNA phosphodiesterase 1 (TDP1, Homo sapiens, UniProt Q9NUW8)
# Sequence of UniProt Q9NUW8 (whole entry, looked up): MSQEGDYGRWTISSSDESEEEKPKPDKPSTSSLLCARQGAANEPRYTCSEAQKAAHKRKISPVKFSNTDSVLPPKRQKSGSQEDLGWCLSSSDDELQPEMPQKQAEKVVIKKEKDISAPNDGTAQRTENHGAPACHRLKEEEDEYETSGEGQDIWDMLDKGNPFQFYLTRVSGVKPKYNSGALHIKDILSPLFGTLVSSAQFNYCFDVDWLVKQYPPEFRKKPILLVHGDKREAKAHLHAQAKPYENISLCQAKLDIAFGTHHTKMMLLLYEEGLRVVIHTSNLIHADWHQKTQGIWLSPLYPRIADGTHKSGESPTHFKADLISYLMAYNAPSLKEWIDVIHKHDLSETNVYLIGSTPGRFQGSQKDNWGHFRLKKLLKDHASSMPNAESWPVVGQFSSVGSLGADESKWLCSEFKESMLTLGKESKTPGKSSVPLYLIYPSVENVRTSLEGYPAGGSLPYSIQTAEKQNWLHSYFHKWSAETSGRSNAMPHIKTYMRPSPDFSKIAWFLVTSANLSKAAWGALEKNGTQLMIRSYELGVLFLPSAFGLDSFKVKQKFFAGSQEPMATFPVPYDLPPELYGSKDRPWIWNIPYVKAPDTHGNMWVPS
# NNMT SAM-bound: Nicotinamide N-methyltransferase, SAM-bound (NNMT, Homo sapiens, UniProt P40261)
# Sequence of UniProt P40261 (whole entry, looked up): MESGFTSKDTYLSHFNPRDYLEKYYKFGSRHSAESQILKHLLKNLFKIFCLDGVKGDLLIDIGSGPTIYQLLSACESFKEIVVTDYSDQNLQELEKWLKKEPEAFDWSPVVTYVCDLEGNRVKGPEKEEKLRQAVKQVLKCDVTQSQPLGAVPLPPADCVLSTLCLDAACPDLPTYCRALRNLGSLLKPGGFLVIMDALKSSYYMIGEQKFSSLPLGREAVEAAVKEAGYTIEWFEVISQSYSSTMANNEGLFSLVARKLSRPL
# Sequence of UniProt O95696 (whole entry, looked up): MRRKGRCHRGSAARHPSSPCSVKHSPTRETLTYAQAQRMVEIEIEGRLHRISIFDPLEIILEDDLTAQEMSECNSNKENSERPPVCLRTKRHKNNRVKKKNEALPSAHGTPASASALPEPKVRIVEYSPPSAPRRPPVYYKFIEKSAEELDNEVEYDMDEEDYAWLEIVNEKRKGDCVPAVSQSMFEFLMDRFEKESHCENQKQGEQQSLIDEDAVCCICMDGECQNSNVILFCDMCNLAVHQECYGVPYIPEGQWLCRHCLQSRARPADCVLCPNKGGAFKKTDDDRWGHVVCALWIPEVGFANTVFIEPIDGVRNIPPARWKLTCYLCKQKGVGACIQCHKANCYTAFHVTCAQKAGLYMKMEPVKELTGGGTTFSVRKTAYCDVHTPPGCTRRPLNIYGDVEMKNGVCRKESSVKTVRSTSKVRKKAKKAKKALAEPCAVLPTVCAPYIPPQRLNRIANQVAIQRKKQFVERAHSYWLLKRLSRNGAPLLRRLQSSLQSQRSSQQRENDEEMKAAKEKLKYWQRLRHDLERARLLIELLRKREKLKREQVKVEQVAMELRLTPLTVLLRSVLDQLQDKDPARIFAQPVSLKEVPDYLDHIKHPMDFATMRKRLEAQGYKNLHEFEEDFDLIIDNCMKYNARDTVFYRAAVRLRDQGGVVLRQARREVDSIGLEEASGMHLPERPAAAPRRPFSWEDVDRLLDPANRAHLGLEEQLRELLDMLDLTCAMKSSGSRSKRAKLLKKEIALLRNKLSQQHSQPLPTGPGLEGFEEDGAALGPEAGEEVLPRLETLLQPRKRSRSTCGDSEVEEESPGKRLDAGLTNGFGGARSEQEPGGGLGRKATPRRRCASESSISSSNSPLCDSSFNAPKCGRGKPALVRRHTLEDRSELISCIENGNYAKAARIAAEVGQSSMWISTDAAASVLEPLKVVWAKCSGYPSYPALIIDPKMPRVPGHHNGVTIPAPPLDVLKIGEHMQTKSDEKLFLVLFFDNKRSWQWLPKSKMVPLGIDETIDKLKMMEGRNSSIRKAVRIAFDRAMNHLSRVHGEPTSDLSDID
# Sequence of UniProt O14733 (whole entry, looked up): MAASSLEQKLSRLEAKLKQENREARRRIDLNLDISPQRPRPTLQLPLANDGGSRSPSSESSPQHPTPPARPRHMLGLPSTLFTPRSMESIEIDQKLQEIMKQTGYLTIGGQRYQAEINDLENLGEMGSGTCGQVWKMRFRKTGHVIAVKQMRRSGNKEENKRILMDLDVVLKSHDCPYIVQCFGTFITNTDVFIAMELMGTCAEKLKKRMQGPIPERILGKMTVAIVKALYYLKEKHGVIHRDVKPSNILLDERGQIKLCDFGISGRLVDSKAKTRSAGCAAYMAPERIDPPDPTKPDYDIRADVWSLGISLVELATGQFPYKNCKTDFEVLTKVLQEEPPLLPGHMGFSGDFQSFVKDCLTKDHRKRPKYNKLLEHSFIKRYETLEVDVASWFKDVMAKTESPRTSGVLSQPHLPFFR
# Sequence of UniProt P04756 (whole entry, unmodified, looked up): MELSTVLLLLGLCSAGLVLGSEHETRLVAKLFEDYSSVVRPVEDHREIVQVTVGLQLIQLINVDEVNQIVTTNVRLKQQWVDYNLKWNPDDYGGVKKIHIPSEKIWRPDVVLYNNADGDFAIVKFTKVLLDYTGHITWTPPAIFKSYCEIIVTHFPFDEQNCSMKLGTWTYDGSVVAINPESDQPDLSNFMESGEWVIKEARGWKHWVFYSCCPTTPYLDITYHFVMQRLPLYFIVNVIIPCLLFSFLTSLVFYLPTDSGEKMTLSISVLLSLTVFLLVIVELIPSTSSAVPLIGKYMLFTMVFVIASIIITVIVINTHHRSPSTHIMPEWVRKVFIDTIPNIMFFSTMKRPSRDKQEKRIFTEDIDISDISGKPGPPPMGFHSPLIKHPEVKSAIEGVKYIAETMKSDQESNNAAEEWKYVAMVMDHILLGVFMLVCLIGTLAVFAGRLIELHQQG
# Sequence of UniProt P08191 (whole entry, looked up): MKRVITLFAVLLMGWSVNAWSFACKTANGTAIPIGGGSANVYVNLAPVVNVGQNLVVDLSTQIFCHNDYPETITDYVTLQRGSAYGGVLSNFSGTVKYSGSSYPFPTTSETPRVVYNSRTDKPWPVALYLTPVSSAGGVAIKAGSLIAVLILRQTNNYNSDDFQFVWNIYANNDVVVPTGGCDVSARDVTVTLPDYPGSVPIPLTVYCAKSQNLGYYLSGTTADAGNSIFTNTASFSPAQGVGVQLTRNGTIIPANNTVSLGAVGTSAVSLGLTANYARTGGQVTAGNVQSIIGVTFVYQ
# Sequence of UniProt P02716 (whole entry, unmodified, looked up): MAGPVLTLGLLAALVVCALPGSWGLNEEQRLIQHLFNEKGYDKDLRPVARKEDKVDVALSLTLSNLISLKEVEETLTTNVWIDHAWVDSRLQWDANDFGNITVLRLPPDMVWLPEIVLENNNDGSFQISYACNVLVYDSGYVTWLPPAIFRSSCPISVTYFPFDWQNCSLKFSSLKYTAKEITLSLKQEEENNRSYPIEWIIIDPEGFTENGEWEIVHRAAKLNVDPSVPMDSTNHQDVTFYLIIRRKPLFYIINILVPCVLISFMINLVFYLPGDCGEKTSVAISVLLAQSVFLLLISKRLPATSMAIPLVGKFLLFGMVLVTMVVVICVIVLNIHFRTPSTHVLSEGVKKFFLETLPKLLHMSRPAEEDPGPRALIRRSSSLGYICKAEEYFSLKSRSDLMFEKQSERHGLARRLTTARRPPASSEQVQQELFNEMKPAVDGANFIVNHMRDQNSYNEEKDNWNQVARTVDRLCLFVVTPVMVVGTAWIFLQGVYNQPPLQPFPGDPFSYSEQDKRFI
# Sequence of UniProt P06802 (whole entry, looked up): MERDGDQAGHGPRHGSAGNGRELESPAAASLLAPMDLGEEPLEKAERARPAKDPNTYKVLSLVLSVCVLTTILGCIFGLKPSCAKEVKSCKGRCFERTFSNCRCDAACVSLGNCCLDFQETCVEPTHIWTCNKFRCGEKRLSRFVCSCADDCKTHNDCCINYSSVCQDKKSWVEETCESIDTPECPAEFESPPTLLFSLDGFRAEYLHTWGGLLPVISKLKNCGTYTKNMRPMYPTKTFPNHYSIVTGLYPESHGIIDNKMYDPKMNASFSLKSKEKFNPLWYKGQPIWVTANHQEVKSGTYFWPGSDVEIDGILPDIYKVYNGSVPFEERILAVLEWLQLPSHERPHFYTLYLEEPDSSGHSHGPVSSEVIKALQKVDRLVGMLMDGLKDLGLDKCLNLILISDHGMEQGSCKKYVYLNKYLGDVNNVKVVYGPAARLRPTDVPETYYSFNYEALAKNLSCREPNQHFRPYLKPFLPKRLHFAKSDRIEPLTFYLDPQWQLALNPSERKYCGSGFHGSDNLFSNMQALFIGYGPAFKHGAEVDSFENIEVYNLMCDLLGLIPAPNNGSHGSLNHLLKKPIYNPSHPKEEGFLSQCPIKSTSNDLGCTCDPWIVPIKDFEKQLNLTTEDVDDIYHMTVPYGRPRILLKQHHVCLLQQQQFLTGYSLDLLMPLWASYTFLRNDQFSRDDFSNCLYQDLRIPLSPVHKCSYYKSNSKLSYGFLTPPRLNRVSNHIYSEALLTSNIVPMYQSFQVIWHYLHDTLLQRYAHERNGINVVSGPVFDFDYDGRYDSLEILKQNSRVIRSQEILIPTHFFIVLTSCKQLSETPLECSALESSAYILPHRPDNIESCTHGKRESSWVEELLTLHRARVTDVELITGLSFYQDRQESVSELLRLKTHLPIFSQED
Compound,target,test,system,setting,measurement,result
CC(=O)N[C@H]1[C@@H](OC(=O)NCCOCCOCCOCCOCCOCCNC(=O)O[C@H]2O[C@H](CO)[C@@H](O)[C@H](O)[C@H]2NC(C)=O)O[C@H](CO)[C@@H](O)[C@@H]1O,wheat germ agglutinin,ITC,,"pH 7.0, 298 K",Kd,0.208 ± 0.018 µM
CCc1nc2cc3ccccc3cc2cc1C(=O)N[C@@H](CCCCN)C(=O)N[C@@H](C/C=C/C[C@H](NC(=O)[C@H](CCCCN)NC(=O)c1cc2cc3ccccc3cc2nc1CC)C(=O)N1CCC[C@H]1C(=O)NCCCN)C(=O)N1CCC[C@H]1C(=O)NCCCN,HIV-1 frameshift site RNA,SPR,,,Kd,0.0539 µM
CCCC[C@@H]1NC(=O)[C@H](Cc2ccc(O)cc2)NC(=O)[C@@H]2CCCN2C(=O)[C@H](CC(=O)O)NC(=O)[C@H](C)NC(=O)[C@H](Cc2ccccc2)NC(=O)[C@@H]2CSCCC(=O)N3CN(CN(C3)C(=O)CCSC[C@@H](C(=O)N[C@@H](C)C(N)=O)NC1=O)C(=O)CCSC[C@H](NC(=O)[C@H](C)NC(C)=O)C(=O)N[C@@H](CC(C)(C)C)C(=O)N1CCC[C@H]1C(=O)N[C@@H](CCC(=O)O)C(=O)N[C@H](C)C(=O)N1CCC[C@H]1C(=O)N[C@@H](Cc1ccc(O)cc1)C(=O)N2,"Tumor necrosis factor receptor superfamily member 9 (Homo sapiens, UniProt Q07011)","binding, SPR",,,Kd,0.0044 µM
CC(=O)N1c2ccc(-c3ccc(CNC(=O)c4cn5cc(-c6cnc(N)nc6)nc(N6CCOCC6)c5n4)cc3)cc2CC[C@@H]1C,"Bromodomain-containing protein 1, bromodomain (BRD1, Homo sapiens, UniProt O95696)","binding, competition with immobilised ligand",,,Kd,> 100 µM
O=C(O)CN(CCOCCOCCN(CC(=O)O)CC(=O)O)CC(=O)O,calcium ion,isothermal titration calorimetry,,,Kd,< 0.1 µM
COc1ccc(C(=O)NO)cc1NC(=O)c1ccc(-c2ccccc2)cc1,MBLAC2,"inhibitor, competition pulldown",SW620 and MV4-11 lysate,1 h,Kd,12.9 µM
CCCCCCCO[C@H]1CO[C@H](CO)[C@@H](O)[C@H](O)[C@@H]1O,"Type 1 fimbrin D-mannose specific adhesin, lectin domain (fimH, Escherichia coli K-12, UniProt P08191)","binding, isothermal titration calorimetry",,"37 °C, global fit, two runs",Kd,0.661 µM
C[N+]1(C)CCCC1,"Chrnd/Chrna1/Chrne (Mus musculus, UniProt P02716+P04756+P20782, G173K/S470W)","resting state binding, agonist, single-channel kinetics",,,Kd,230 µM
NCCCC[C@H](NC(=O)[C@H](C/C=C\C[C@H](NC(=O)[C@@H]1CCCN1)C(=O)N[C@@H](CCCCN)C(=O)NCCCN)NC(=O)[C@@H]1CCCN1)C(=O)NCCCN,HIV-1 frameshift site RNA,SPR,,,Kd,0.117 µM
Cc1cc(C=NOCc2ccc(-c3nc4cc(-c5ccccc5)ccn4c3Nc3ccc(C(=O)O)cc3)cc2)c(C)n1-c1ccc(C(=O)O)cc1,TDP1,"enzyme activity, inhibitor",,"100 µM, unpurified compound",inhibition,98.2%
COc1cc(CF)c(C(N)=O)cn1,NNMT SAM-bound,"substrate, SPR",,"20 °C, added: SAM",Kd,0.794 µM
CCc1nc2cc3ccccc3cc2cc1C(=O)N1CCC[C@H]1C(=O)N[C@@H](CCC/C=C/CCC[C@H](NC(=O)[C@@H]1CCCN1C(=O)c1cc2cc3ccccc3cc2nc1CC)C(=O)N[C@@H](CCCCN)C(=O)NCCCN)C(=O)N[C@@H](CCCCN)C(=O)NCCCN,HIV-1 frameshift site RNA,SPR,,,Kd,1.38 µM
CCOC1c2cc3c(cc2-c2c1c(COC)cc1cc(OC)c(OC)cc21)OCO3 (racemic),"Hypoxia-inducible factor 1-alpha, part: C-terminal residues 575–826 (HIF1A, Homo sapiens, UniProt Q16665)",binding,,,Kd,0.512 µM
CNc1cc(Cl)c(C(N)=O)cn1,NNMT SAM-bound,"substrate, SPR",,"20 °C, added: SAM",Kd,20 µM
CCOC(=O)C1CC(CC)C2C=CC3CCN(C(=O)C4CCC5C=CC6(CCCN6C(=O)C(Cc6ccccc6Cl)NC(C)=O)C(=O)N54)C3C(=O)N12 (centres unmarked),"Transcriptional coactivator YAP1 (YAP1, Homo sapiens, UniProt P46937)","binding, NMR",,,Kd,1100 µM
Cc1ccc(C(N)=O)cn1,NNMT SAM-bound,"substrate, SPR",,"20 °C, added: SAM",Kd,3.98 µM
C=CC(=O)N1CCCN(C(=O)c2cc(Sc3cnc(NC(=O)C4CC4)s3)c(C)cc2OC)C[C@H]1C,"Dual specificity mitogen-activated protein kinase kinase 7 (MAP2K7, Homo sapiens, UniProt O14733)","binding, competition with immobilised ligand",,,Kd,> 10 µM
Cc1c[nH]c2nccc(-c3ccc(C(=O)N[C@@H]4c5c(F)cc(C(F)F)cc5C[C@@H]4O)cn3)c12,"Uncharacterized serine/threonine-protein kinase SBK3 (SBK3, Homo sapiens, UniProt P0C264)","binding, competition with immobilised ligand",,,Kd,1.65 µM
CCc1nc2cc3ccccc3cc2cc1C(=O)N1CCC[C@H]1C(=O)N[C@@H](C/C=C\C[C@H](NC(=O)[C@@H]1CCCN1C(=O)c1cc2cc3ccccc3cc2nc1CC)C(=O)N[C@@H](CCCCN)C(=O)NCCCN)C(=O)N[C@@H](CCCCN)C(=O)NCCCN,HIV-1 frameshift site RNA,SPR,,,Kd,1.34 µM
COC(=O)CCCNC(=O)c1cc(S(N)(=O)=O)c(Cl)cc1NC1CCCCC1,"Carbonic anhydrase 6 (CA6, Homo sapiens, UniProt P23280)",,,pH 7,Kd,33 µM
CNc1cc(CF)c(C(N)=O)cn1,NNMT SAM-bound,"substrate, SPR",,"20 °C, added: SAM",Kd,5.01 µM
CC(=O)N[C@H]1[C@@H](OC(=O)NCCCOCCCCOCCCNC(=O)O[C@H]2O[C@H](CO)[C@@H](O)[C@H](O)[C@H]2NC(C)=O)O[C@H](CO)[C@@H](O)[C@@H]1O,wheat germ agglutinin,ITC,,"pH 7.0, 298 K",Kd,0.128 ± 0.006 µM
CN(C)S(=O)(=O)c1ccc(-c2ccc(C=NOCc3ccc4nc(-c5ccccc5)c(Nc5ccc(C(=O)O)cc5)n4c3)o2)cc1,TDP1,"enzyme activity, inhibitor",,"100 µM, unpurified compound",inhibition,47.7%
COc1ccc(Cn2ccc3ccc(C(=O)NO)cc32)cc1,MBLAC2,"inhibitor, competition pulldown",SW620 and MV4-11 lysate,1 h,Kd,> 30.2 µM
C=CC(=O)N1CC2(CCN(c3nc(OC4CCN(CCCOC)CC4)nc4c(OCC(F)(F)F)c(-c5c(C)ccc6[nH]ncc56)c(C5CC5)cc34)CC2)C1,"GTPase KRas, GDP-bound (KRAS, Homo sapiens, UniProt P01116, Q61H)","binding, surface plasmon resonance",,,Kd,0.896 ± 0.034 µM
CC[C@H](C)[C@@H]1NC(=O)[C@H](Cc2c[nH]c3ccccc23)NC(=O)[C@@H]2CCCN2C(=O)[C@H](C)NC(=O)[C@H](C(C)C)NC(=O)[C@H](CCC(N)=O)NC(=O)[C@H](Cc2ccccc2)NC(=O)[C@H](Cc2c[nH]cn2)NC(=O)[C@H]([C@@H](C)O)NC(=O)[C@H](Cc2ccc(O)cc2)NC(=O)CSC[C@@H](C(N)=O)NC(=O)[C@H](CC(C)C)NC(=O)[C@H](CO)NC(=O)[C@H](CCC(N)=O)NC1=O,"Huntingtin, residues 97-2069 (HTT, Homo sapiens, UniProt P42858)","binding, fluorescence polarization",,N-terminal domain,Kd,0.073 µM
COc1cccc2c(N3CCC(CCP(=O)(O)O)CC3)ncnc12,"Ectonucleotide pyrophosphatase/phosphodiesterase family member 1 (Enpp1, Mus musculus, UniProt P06802)","binding, SPR",,,Kd,0.000254 µM
COc1ccc(C(N)=O)cn1,NNMT SAM-bound,"substrate, SPR",,"20 °C, added: SAM",Kd,2 µM
Cc1cccc2c1N(C(=O)n1ccnn1)CC2,"KAI2 (Arabidopsis thaliana, UniProt Q9SZU7, F157Y)",ITC,,"F157Y mutant, mean",Kd,445 µM

# A few entries again:
Compound,target,test,system,setting,measurement,result
CCCC[C@@H]1NC(=O)[C@H](Cc2ccc(O)cc2)NC(=O)[C@@H]2CCCN2C(=O)[C@H](CC(=O)O)NC(=O)[C@H](C)NC(=O)[C@H](Cc2ccccc2)NC(=O)[C@@H]2CSCCC(=O)N3CN(CN(C3)C(=O)CCSC[C@@H](C(=O)N[C@@H](C)C(N)=O)NC1=O)C(=O)CCSC[C@H](NC(=O)[C@H](C)NC(C)=O)C(=O)N[C@@H](CC(C)(C)C)C(=O)N1CCC[C@H]1C(=O)N[C@@H](CCC(=O)O)C(=O)N[C@H](C)C(=O)N1CCC[C@H]1C(=O)N[C@@H](Cc1ccc(O)cc1)C(=O)N2,"Tumor necrosis factor receptor superfamily member 9 (Homo sapiens, UniProt Q07011)","binding, SPR",,,Kd,0.0044 µM
CC(=O)N1c2ccc(-c3ccc(CNC(=O)c4cn5cc(-c6cnc(N)nc6)nc(N6CCOCC6)c5n4)cc3)cc2CC[C@@H]1C,"Bromodomain-containing protein 1, bromodomain (BRD1, Homo sapiens, UniProt O95696)","binding, competition with immobilised ligand",,,Kd,> 100 µM
O=C(O)CN(CCOCCOCCN(CC(=O)O)CC(=O)O)CC(=O)O,calcium ion,isothermal titration calorimetry,,,Kd,< 0.1 µM
COc1ccc(C(=O)NO)cc1NC(=O)c1ccc(-c2ccccc2)cc1,MBLAC2,"inhibitor, competition pulldown",SW620 and MV4-11 lysate,1 h,Kd,12.9 µM
CCCCCCCO[C@H]1CO[C@H](CO)[C@@H](O)[C@H](O)[C@@H]1O,"Type 1 fimbrin D-mannose specific adhesin, lectin domain (fimH, Escherichia coli K-12, UniProt P08191)","binding, isothermal titration calorimetry",,"37 °C, global fit, two runs",Kd,0.661 µM
